Assay results pooled from the literature.
Each numbered part is a random draw from the data of one study; scales do not carry over between parts.

Sample 1 — cell line: HEK-293T/ACE2; tested at: 10 µM; time: 16 h; reference: vehicle
SMILES	viability [%]
CC(C)Cc1ccc(C(C)C(=O)O)cc1 (centres unmarked)	98.4
CC(C)[C@H]1CC[C@H](C(=O)N[C@H](Cc2ccccc2)C(=O)O)CC1	96.9
Cc1cc(C2CCCCC2)n(O)c(=O)c1	74.5

Sample 2 — read-out: enzyme activity; action: inhibitor; tested at: 20 µM
Target: Replicase polyprotein 1ab, polymerase (rep, Severe acute respiratory syndrome coronavirus 2, UniProt P0DTD1)
Structure (SMILES)	inhibition [%]
O=[N+]([O-])c1cn2c(n1)OC[C@@H](OCc1ccc(OC(F)(F)F)cc1)C2	1.84
N[C@@H](CSCC(=O)O)C(=O)O	-2.68
O=C(NCCO[N+](=O)[O-])c1cccnc1	-0.56
CCCCCCCCCCCCCC[C@@H](O)[C@@H](O)[C@@H](N)CO	20.4
CCN(CC)CCNC(=O)c1ccccc1I	-0.84
O=C(NCc1ccc(Oc2ccccc2)cc1)c1nc(-c2cc(Br)c(O)c(Br)c2)no1	-7.86
O=C(C[S+]([O-])C(c1ccccc1)c1ccccc1)NO (centres unmarked)	3.84
O=C(Oc1ccc([N+](=O)[O-])cc1)N1CCN(Cc2cccc(Oc3ccccc3)c2)CC1	10.6
Cn1nc(C(C)(C)C)cc1C(=O)N[C@@H](Cc1cccc(Cl)c1)C(=O)NCC#N	-1.74
CSc1ccc([C@@H]2CN3CCC[C@@H]3c3ccccc32)cc1 (racemic)	-5.84
COc1ccccc1N1CCN(CCN2C(=O)CC3(CCCC3)CC2=O)CC1	-2.91
Cc1ccc2c(c1CCC(=O)O)CC[C@@H](NS(=O)(=O)c1ccc(Cl)cc1)C2	1.17
Nc1ccc(S(=O)(=O)Nc2ccc(Cl)nn2)cc1	27.7
CC(C)(C)c1cc(C(=O)/C=C/c2ccc(C(=O)O)cc2)cc(C(C)(C)C)c1	5.95
O=C(CN1CCN(C(=O)c2ccco2)CC1)Nc1cc(C(F)(F)F)ccc1Cl	-2.18
OC[C@H]1O[C@@H](O[C@@H]2[C@@H](CO)OC(O)(CO)[C@H]2O)[C@H](O)[C@@H](O)[C@H]1O (mixture of isomers)	23.1
COc1ccc(-c2nc(N3CCOCC3)c3sc(CN(C)c4ncc(C(=O)NO)cn4)cc3n2)cn1	3.9
O=S(=O)(O)Oc1ccc(C(c2ccc(OS(=O)(=O)O)cc2)c2ccccn2)cc1	-2.26
Nc1ccc(S(=O)(=O)Nc2ccnn2-c2ccccc2)cc1	23.4
CC(C)c1c(NC(=O)Nc2ccc(Cl)cc2)c(=O)n(-c2ccccc2)n1C	-2.43
COc1ccc(CN2CCN(C(c3ccc(F)cc3)c3ccc(F)cc3)CC2)c(OC)c1OC	-1.49
CC(C)(N)C(=O)N[C@H](COCc1ccccc1)C(=O)N1CCC2(CC1)CN(S(C)(=O)=O)c1ccccc12	-0.59
O=C(O)CSCC(=O)NC1CCSC1=O (centres unmarked)	24.8
CC(=O)O[C@@]12CO[C@@H]1C[C@@H](O)[C@@]1(C)C(=O)[C@H](O)C3=C(C)[C@@H](O)C[C@@](O)([C@@H](OC(=O)c4ccccc4)[C@H]21)C3(C)C	8.53
CC(C)[N+](C)(CCC(C(N)=O)(c1ccccc1)c1ccccc1)C(C)C	20.8

Sample 3 — method: competition protein-binding microarray; form: double-stranded DNA, one strand shown; sample: in vitro; tested at: 2 µM; together with: Cbf1 competitor, 0.05 µM; reading: higher = stronger binding; shared flanks, not repeated: … GTCTTGATTCGCTTGACGCTGCTG
Target: Phosphate system positive regulatory protein PHO4, full length, GST-tagged (PHO4, Saccharomyces cerevisiae, UniProt P07270, residues 1-312)
Setting: whole 60-bp probe, lowest competitor level
Residues (chain): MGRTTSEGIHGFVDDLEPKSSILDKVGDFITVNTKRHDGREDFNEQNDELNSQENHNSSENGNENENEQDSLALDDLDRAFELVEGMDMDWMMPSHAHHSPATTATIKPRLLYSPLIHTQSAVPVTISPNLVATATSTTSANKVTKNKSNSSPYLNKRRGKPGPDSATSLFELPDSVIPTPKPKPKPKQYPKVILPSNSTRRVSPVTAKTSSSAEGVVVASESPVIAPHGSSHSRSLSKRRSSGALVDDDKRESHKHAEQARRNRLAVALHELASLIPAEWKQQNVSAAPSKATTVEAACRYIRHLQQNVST
Strand	fluorescence intensity [a.u.]
AAAACTTACTTCCGTCACATGCAAGATGTAGACCCA	8300
ACCCTTTTCCCGAGTCACGTGCAAAGTGTAATAGTA	15200
TCCAATGGTTCGAACCATGTGGAAGAAGATGCAGAA	7590
CTTCTGTAAATTTGATGCGTGGGTGGACGCGCCCCG	9440
CTTCTGTAAATTTTTCACGTGTCCTGACGCGCCCCG	12100
CTTTCCCGATCTTGAGTCGTGGGTGTAGCACATTTG	7150
GCACTTTCAGGTACCAGCGTGCTAAAGCCATTTTCG	8150
AGCCTTCCCGGCAGATTAATTCAATGGGAGTTGCCG	2250

Sample 4 — method: protein-binding microarray; form: double-stranded DNA, one strand shown; sample: in vitro; tested at: 250 nM; setting: 60-bp whole probe; together with: salmon DNA 0.4 mg/ml; reference: random background probes; reading: higher = stronger binding; shared flanks, not repeated: GCCTAGCAC … GTCTTGATTCGCTTGACGCTGCTG
Target: Interferon regulatory factor 5, full length, phosphomimetic (IRF5, Homo sapiens, UniProt Q13568-2, residues 1-514, K96S/S451D/S453D/S456D/S462D)
Strand	log fluorescence [z-score]
TTAGGTTTCGTTTCCGGTTAGTGCTAG	7.69
GACGATATCGTGACTGGAGACGTGCTA	0.292
TTAGCTATCGACTATCGGTTAGTGCTA	7.73
TTAGATTTAAGACTGGATTAGTGCTAG	-0.0694
ACCACTCTTCCTTTACTTTCGTGCTAG	3.57
TCAGATATCGGGTATCGATTAGTGCTA	5.54
TCATTTCTTTGCTTCACACTGTGCTAG	1.28
TTAGAAGTGAGTTTCGATTAGTGCTAG	8.98

Sample 5 — method: RNA Bind-n-Seq; form: RNA; sample: in vitro; tested at: 365 nM; reference: no-protein control; reading: higher = stronger binding
Target: RNA binding protein fox-1 homolog 2, RRM domain, GST-SBP tag (RBFOX2, Homo sapiens, UniProt O43251-10, residues 100-194)
Setting: natural RNA segment, single round, ends assumed
Shared flanks, not repeated: GGGAGUUCUACAGUCCGACGAUC … UGGAAUUCUCGGGUGCCAA
Residues (chain): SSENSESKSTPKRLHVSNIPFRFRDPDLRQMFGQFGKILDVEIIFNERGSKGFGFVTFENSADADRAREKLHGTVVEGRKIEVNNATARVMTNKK
Strand	RBNS enrichment (R)
GGGGCACAUUUCUUAGAGGGCUUGCUGAGUGUGUAAAUAUAAUCGACUUUUGUUUGUGUUACAUGACUUCUGUGACUUCAUUGAAAAUCUGCACAAUUCAGUUUCAGCUC	0.406
AUUUAUUUUUUUACUGAACCCAACUUGUAUCUCUAGGUUCAGCCCUUGGCCACUCUGGCCCUGAGCCUGGCUGAAUAGCAGGGCCCGUGUGUGUAGGCUCCCUUCUCACC	0.719
AAUUAUUCUGUCACCCAGCCUGGCGUAGGACUCUUUUGGUCCUGCCUGCUUCCUAUCUCUGGAGGAGCUUCCCCACGCGGGAGAGCAAUGGCAGAGGAUCCACACAUCCU	0.205
GUUUGAAGAGAAACCUCCGGUGUGAGAUAUACAAAUAUAUUUAAUUGUGUCAUAUUAAACUUCUGAUUCACAUUCAGGUGGUCUUUAUUUGGGGAGGAGGAACAAUUGUU	0.668
AUCAUGAAGGUCACAGUUGUGGUACUGUUAUUGAUAAUAAUAUAGGGUUUUUUUCUGCCUAAGUUUUACCUGUUUCACCAGUGUUUCAGCCCUUGACUGCCCCUCCUAUG	0.379
CAAGAAAGAGCAAAUUUGUCCUGAACCUGAAUUUAUUUUUAUAAGAAAACCUGUUAUUACCUGUGUGCUUUUCACUUGGUUGUUCAUGAACUGCAGAGGGGGCUCCUUGA	0.417
UGGAGUCUUUUUCAUGCUCUGGUCACCCAAGCUGCCUCAGAACCCAUUUGCUUCUCUCCUUCCUGGAAAGCUUCCCUUUAUGUUUUAUUUUGACCCCAGAUGUCCAGAUG	1.01
UUACACCACCGGCCCCCUCCCCCCAGACUCUUUUUUUGAGUGACAGCUUUCUGGGAUGUCACAGUCCAACCAGAAACACCCCUCUGUCUAGGACUGCAGUGUGGAGUUCA	0.449

Sample 6 — read-out: enzyme activity; tested at: 20 µM; setting: with DTT
Target: Replicase polyprotein 1ab, main protease (rep, Severe acute respiratory syndrome coronavirus 2, UniProt P0DTD1)
Structure (SMILES)	inhibition
CN1Cc2ccccc2[C@@H]2c3cccc4[nH]cc(c34)C[C@H]21	-3.6%
Cc1ccc(C)c(-n2sc3cc(F)ccc3c2=O)c1	99.4%
Cc1cc(-c2ccc(/C=C3/SC(Nc4ccc(Cl)c(C(=O)O)c4)=NC3=O)o2)c([N+](=O)[O-])cc1C	73.3%
Nc1ccc(O)c2ncccc12	98.2%

For quick reference, copied from above (sample 2):
Structure (SMILES)	inhibition [%]
Cn1nc(C(C)(C)C)cc1C(=O)N[C@@H](Cc1cccc(Cl)c1)C(=O)NCC#N	-1.74
CSc1ccc([C@@H]2CN3CCC[C@@H]3c3ccccc32)cc1 (racemic)	-5.84
COc1ccccc1N1CCN(CCN2C(=O)CC3(CCCC3)CC2=O)CC1	-2.91
Cc1ccc2c(c1CCC(=O)O)CC[C@@H](NS(=O)(=O)c1ccc(Cl)cc1)C2	1.17
Nc1ccc(S(=O)(=O)Nc2ccc(Cl)nn2)cc1	27.7
CC(C)(C)c1cc(C(=O)/C=C/c2ccc(C(=O)O)cc2)cc(C(C)(C)C)c1	5.95
